Assay results pooled from the literature.
Numbers after ± are the reported error.

| Structure (SMILES) | test | system | setting | how to read | endpoint | value |
| --- | --- | --- | --- | --- | --- | --- |
| CCS(=O)(=O)c1ccccc1C(=O)N1CCN(c2nc3ccc(F)cc3s2)C[C@@H]1C |  | mouse, brain | 30 mg/kg |  | anandamide level | no effect |
| C=C(c1ncc(C(=O)O)cn1)c1cc2c(cc1C)C(C)(C)CCC2(C)C | RNA sequencing, refers to: Lyve1 | rat, brain | dose not given, 24 h | baseline: vehicle | log2 fold change | -0.049 |
| CCC1CC2C(C)=CC3C(=O)CCCC3C=CC(C)=CC2C(=O)O1 (centres unmarked) | thioflavin S staining | 5XFAD transgenic mouse, cortex | oral gavage, 30 mg/kg/day, 5 days | baseline: untreated | Aβ plaque number reduction | 25.3% |
| CC[C@H]1[C@@H](O)[C@@H]2[C@H](CC[C@]3(C)[C@@H]([C@H](C)CCOS(=O)(=O)[O-])CC[C@@H]23)[C@@]2(C)CC[C@@H](O)C[C@@H]12.[Na+] | digital image analysis | ob/ob NASH mouse model, liver | oral, 3 mg/kg once daily, 8 weeks | baseline: area | fibrosis area | 13.6 ± 0.8% |
| C=CC(=O)N1C[C@H](C)N(c2nc(OC[C@@]34CCCN3C[C@H](F)C4)nc3c(F)c(-c4ccc(F)c5sc(N)c(C#N)c45)c(C(F)(F)F)cc23)C[C@H]1C |  | MIA PaCa-2 Matrigel plug, mouse | oral, 10 mg/kg single dose, 6 h |  | pERK inhibition | 73% |
| Cc1nc(C)c(C=[N+]([O-])C(C)(C)C)nc1C | Western blot, refers to: PGC-1α | mouse, MPTP model, substantia nigra nuclei | 10 mg/kg |  | protein level increase | 33.6% |
| O=C(O)c1ccc(/C=C2\SC(=S)N(Cc3cccc(C(F)(F)F)c3)C2=O)cc1 |  | wild-type mouse, high-fat diet, blood | 2.5 mg/kg once daily, 6 weeks |  | fasting blood glucose | decreased |
| CC1=C(O)C(=O)C=C2C1=CC=C1[C@@]2(C)CC[C@@]2(C)[C@@H]3C[C@](C)(C(=O)NCCOCCOCCOCCOCC(=O)N[C@H](C(=O)N4C[C@H](O)C[C@H]4C(=O)N[C@@H](C)c4ccc(-c5scnc5C)cc4)C(C)(C)C)CC[C@]3(C)CC[C@]12C | flow cytometry | mouse, B16-F10 melanoma model, blood | ip, 2 doses of 1.8 mg/kg |  | monocytic MDSC (CD11b+Ly6C+) | decreased |
| CCCC[C@H](NC(=O)[C@@H](NC(=O)[C@H](CC(=O)O)NC(=O)[C@H](CCC(N)=O)NC(=O)[C@H](CC(C)C)NC(=O)[C@H](CC(C)C)NC(=O)[C@H](CCCN)NC(=O)[C@H](CCCNC(=N)N)NC(=O)[C@H](C)NC(=O)[C@H](CO)NC(=O)[C@H](CC(C)C)NC(=O)[C@H](CCC(N)=O)NC(=O)[C@H](CC)NC(=O)[C@H](CC(C)C)NC(=O)[C@@H](NC(=O)[C@H](CCCN)NC(=O)[C@H](CCCNC(=N)N)NC(=O)[C@H](Cc1ccc(O)cc1)NC(=O)[C@H](CO)NC(=O)[C@H](CC(N)=O)NC(=O)[C@@H](NC(=O)[C@H](Cc1ccccc1)NC(=O)[C@@H](NC(=O)[C@H](C)NC(=O)[C@H](CC(=O)O)NC(=O)[C@@H](C)NC(=O)[C@H](Cc1ccc(O)cc1)NC)[C@@H](C)CC)[C@@H](C)O)C(C)C)[C@@H](C)CC)C(=O)N[C@@H](CC(=O)O)C(=O)NCCCCNC(=N)N | GH release, ELISA | male Sprague-Dawley rat, anaesthetised, serum | subcutaneous, 3 µg/kg, 30 min |  | serum GH level | 141 ± 12.3 ng/mL |
| [2H]C([2H])([2H])C(c1cc2nnc(-c3cc(F)ccc3F)n2nc1OCc1ncnn1C)(C([2H])([2H])[2H])C([2H])([2H])[2H] |  | GAERS rats | oral, 0.075 to 100 mg/kg |  | duration of SWD inhibition | > 130 min |
| CCCC[C@H](NC(=O)[C@@H](NC(=O)[C@H](CC(=O)O)NC(=O)[C@H](CCC(N)=O)NC(=O)[C@H](CC(C)C)NC(=O)[C@H](CC(C)C)NC(=O)[C@H](CCCN)NC(=O)[C@H](CCCNC(=N)N)NC(=O)[C@H](C)NC(=O)[C@H](CO)NC(=O)[C@H](CC(C)C)NC(=O)[C@H](CCC(N)=O)NC(=O)[C@H](CC)NC(=O)[C@H](CC(C)C)NC(=O)[C@@H](NC(=O)[C@H](CCCN)NC(=O)[C@H](CCCNC(=N)N)NC(=O)[C@H](Cc1ccc(O)cc1)NC(=O)[C@H](CO)NC(=O)[C@H](CCC(N)=O)NC(=O)[C@@H](NC(=O)[C@H](Cc1ccccc1)NC(=O)[C@@H](NC(=O)[C@H](C)NC(=O)[C@H](CC(=O)O)NC(=O)[C@@H](C)NC(=O)[C@H](Cc1ccc(O)cc1)N(C)C(C)=O)[C@@H](C)CC)[C@@H](C)O)C(C)C)[C@@H](C)CC)C(=O)N[C@@H](CC(=O)O)C(=O)NCCCCNC(=N)N | GH release, ELISA | male Sprague-Dawley rat, anaesthetised, serum | subcutaneous, 3 µg/kg, 15 min |  | serum GH level | 90.8 ± 20.3 ng/mL |
| COc1c2c(cc3oc(C)cc(=O)c13)O[C@H](C(C)(C)O[C@@H]1O[C@H](CO)[C@@H](O)[C@H](O)[C@H]1O)C2 |  | mouse, xylene ear edema | oral, 1 mg/kg |  | ear edema weight increase | 6.64 ± 0.18 mg |
| CCCC[C@H](NC(=O)[C@@H](NC(=O)[C@H](CC(=O)O)NC(=O)[C@H](CCC(N)=O)NC(=O)[C@H](CC(C)C)NC(=O)[C@H](CC(C)C)NC(=O)[C@H](CCCN)NC(=O)[C@H](CCCNC(=N)N)NC(=O)[C@H](C)NC(=O)[C@H](CO)NC(=O)[C@H](CC(C)C)NC(=O)[C@H](CCC(N)=O)NC(=O)[C@H](CC)NC(=O)[C@H](CC(C)C)NC(=O)[C@@H](NC(=O)[C@H](CCCN)NC(=O)[C@H](CCCNC(=N)N)NC(=O)[C@H](Cc1ccc(O)cc1)NC(=O)[C@H](CO)NC(=O)[C@H](CCC(N)=O)NC(=O)[C@@H](NC(=O)[C@H](Cc1ccccc1)NC(=O)[C@@H](NC(=O)[C@H](C)NC(=O)[C@H](CC(=O)O)NC(=O)[C@H](C)NC(=O)CCc1ccc(O)cc1)[C@@H](C)CC)[C@@H](C)O)C(C)C)[C@@H](C)CC)C(=O)N[C@@H](CC(=O)O)C(=O)N[C@@H](CCCNC(=N)N)C(=O)NC | GH release, ELISA | male Sprague-Dawley rat, anaesthetised, serum | subcutaneous, 3 µg/kg, 30 min |  | serum GH level | 135 ± 10.8 ng/mL |
| O=c1c(OCc2ccccc2)c(-c2ccc([N+](=O)[O-])cc2)oc2ccccc12 |  | diabetic rat | 5 mg/kg, 28 days, p-nitrophenyl β-glucoside induced |  | serum total cholesterol | 160 ± 4.91 mg/dL |
| CC(=O)N[C@@H](CC(N)=O)C(=O)NCC(=O)N[C@@H](C)C(=O)N[C@@H](C)C(N)=O | 1H NMR | sodium phosphate buffer 50 mM | pH 7.4, 46 °C |  | rate constant succinimide to α-Asp | 0.229 h⁻¹ |
| CCCC[C@H](NC(=O)[C@@H](NC(=O)[C@H](CC(=O)O)NC(=O)[C@H](CCC(N)=O)NC(=O)[C@H](CC(C)C)NC(=O)[C@H](CC(C)C)NC(=O)[C@H](CCCN)NC(=O)[C@H](CCCNC(=N)N)NC(=O)[C@H](C)NC(=O)[C@H](CO)NC(=O)[C@H](CC(C)C)NC(=O)[C@H](CCC(N)=O)NC(=O)[C@H](CC)NC(=O)[C@H](CC(C)C)NC(=O)[C@@H](NC(=O)[C@H](CCCN)NC(=O)[C@H](CCCNC(=N)N)NC(=O)[C@H](Cc1ccc(O)cc1)NC(=O)[C@H](CO)NC(=O)[C@H](CCC(N)=O)NC(=O)[C@@H](NC(=O)[C@H](Cc1ccccc1)NC(=O)[C@@H](NC(=O)[C@H](C)NC(=O)[C@H](CC(=O)O)NC(=O)[C@@H](C)NC(=O)[C@H](Cc1ccc(O)cc1)NC)[C@@H](C)CC)[C@@H](C)O)C(C)C)[C@@H](C)CC)C(=O)N[C@@H](CC(=O)O)C(=O)N[C@@H](CCCNC(=N)N)C(=O)NCCCCC(N)=O | GH release, ELISA | male Sprague-Dawley rat, anaesthetised, serum | subcutaneous, 3 µg/kg, 30 min |  | serum GH level | 226 ± 19.8 ng/mL |
| CCCCCCOC(=O)Cc1c(C)n(C(=O)c2ccc(Cl)cc2)c2ccc(OC)cc12 |  | BALB/c mice, acetic acid writhing | intraperitoneal, 20 mg/kg, 20 min count |  | writhing count | 11.5 ± 0.76 |

For quick reference, copied from above:
| Structure (SMILES) | test | system | setting | how to read | endpoint | value |
| --- | --- | --- | --- | --- | --- | --- |
| CCCCCCOC(=O)Cc1c(C)n(C(=O)c2ccc(Cl)cc2)c2ccc(OC)cc12 |  | BALB/c mice, acetic acid writhing | intraperitoneal, 20 mg/kg, 20 min count |  | writhing count | 11.5 ± 0.76 |
